Measured values collected from several papers.
Numbered parts are unrelated; each lists some results of a single study. Changes are numbered by the printed parent chain.

Block 1
Target: Hepatocyte nuclear factor 3-beta, forkhead domain (FOXA2, Homo sapiens, UniProt Q9Y261, residues 142-269)
Technique: protein-binding microarray
Molecule type: double-stranded DNA, one strand shown
Sample: in vitro
Concentration: not given
Notes: k-mer, scored over probes, only values ≥0.25
Direction: higher = stronger binding
Endpoint: E-score
Residues (chain): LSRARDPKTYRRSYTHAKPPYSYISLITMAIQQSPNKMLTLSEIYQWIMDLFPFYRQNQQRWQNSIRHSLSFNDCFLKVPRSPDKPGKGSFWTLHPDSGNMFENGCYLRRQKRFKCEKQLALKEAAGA
ACAATTGA: 0.265
TATTCACA: 0.298
AGTAGATA: 0.372
CTAAATAA: 0.295
GCTATATA: 0.272
TGCAAACA: 0.323
AATGTTAC: 0.257
AATCACAA: 0.274
ACATAGTC: 0.298
ACGTTTTA: 0.272
AGATCAAT: 0.27
CGTATACA: 0.382

Block 2
Target: Centromere-binding protein 1, full length, His-tagged (CBF1, Saccharomyces cerevisiae, UniProt P17106, residues 1-351)
UniProt P17106, sequence (whole entry, looked up): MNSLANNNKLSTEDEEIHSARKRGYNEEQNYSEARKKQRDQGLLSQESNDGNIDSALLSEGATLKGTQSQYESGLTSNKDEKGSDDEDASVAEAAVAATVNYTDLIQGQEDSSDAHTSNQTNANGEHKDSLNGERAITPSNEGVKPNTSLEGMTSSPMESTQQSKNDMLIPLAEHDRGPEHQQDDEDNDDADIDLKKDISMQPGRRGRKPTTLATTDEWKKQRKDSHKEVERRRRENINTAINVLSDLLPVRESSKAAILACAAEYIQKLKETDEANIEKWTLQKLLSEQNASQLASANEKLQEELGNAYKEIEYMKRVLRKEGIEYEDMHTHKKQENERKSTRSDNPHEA
Technique: competition protein-binding microarray
Molecule type: double-stranded DNA, one strand shown
Sample: in vitro
Concentration: 2 µM
Notes: whole 60-bp probe, lowest competitor level
With: Pho4 competitor, 0.05 µM
Direction: higher = stronger binding
Endpoint: fluorescence intensity
All sequences stand within: … GTCTTGATTCGCTTGACGCTGCTG
GTCTTGTCTCATTGTCACTGAACTTTCCCCACTTCA: 80.2 a.u.
ATTGAGAAGTATAACGACACCCAGTGGACCTCGGGT: 57 a.u.
ATTGTGGAATTGGCAGGCGTGACAAACAAATCCGAT: 285 a.u.
TGAAAAAACCCTTTTCGCGTGCCAGTGATGCTTCCA: 69.5 a.u.
CTGTAGAAGCTAGTACTTGTGATGAACCATTGGCAG: 84.6 a.u.
AGTAGCTAAGCGAGTCACGGGACTAAAAGGTAAAAA: 3070 a.u.
CTTTCCCGATCTTGTAGGGTGGGTGTAGCACATTTG: 78.6 a.u.
GTCTTGTCTCATTGTCTGGTGGGTGTCCCCACTTCA: 72.1 a.u.
CGTCCTAGTGATTGTCCAGTGGGTGCCATGAGGAAG: 79.9 a.u.
CTTTCCCGATCTTGTCACCCAACTTTAGCACATTTG: 66.3 a.u.
AGCACTGCCTCCTGTCACCTGTTTCGGCATGGCACA: 124 a.u.
GTCTTGTCTCATTGGAAAGTGGGTGTCCCCACTTCA: 85.8 a.u.

Block 3
Target: Sal-like protein 4, full length isoform B (SALL4, Homo sapiens, UniProt Q9UJQ4-2, residues 1-616)
Technique: universal PBM
Molecule type: double-stranded DNA, one strand shown
Sample: in vitro
Concentration: not given
Notes: 8-mer, flanks averaged, mean of replicates
Direction: higher = stronger binding
Endpoint: E-score
AACACATC: 0.132
CAATCGAC: 0.0146
CGTAACGC: -0.145
CGCAAGCA: 0.109
AGGTTATG: 0.221
ATTGGGCA: 0.0247
AACACACC: 0.0118
GTATTACA: 0.303
ACGGTCCA: -0.257
ACACTCTC: 0.0312
GAGAACAC: -0.145
CACATAAC: 0.212
CACTCCAC: -0.114
GAGGGACC: -0.246
CAAATTGA: -0.0034
GGGGTTAA: -0.0723
GTAATCTA: 0.298
CACAACAA: 0.186
CTCAACAC: 0.0058
CCAATTAC: 0.0163
ATTAAACG: 0.289
CATCAGGA: 0.0617
ACTTGCCA: -0.139

Block 4
Target: RNA binding protein fox-1 homolog 2, RRM domain, GST-SBP tag (RBFOX2, Homo sapiens, UniProt O43251-10, residues 100-194)
Technique: RNA Bind-n-Seq
Molecule type: RNA
Sample: in vitro
Concentration: 365 nM
Notes: natural RNA segment, single round, ends assumed
Baseline: no-protein control
Direction: higher = stronger binding
Endpoint: RBNS enrichment (R)
All sequences stand within: GGGAGUUCUACAGUCCGACGAUC … UGGAAUUCUCGGGUGCCAA
Residues (chain): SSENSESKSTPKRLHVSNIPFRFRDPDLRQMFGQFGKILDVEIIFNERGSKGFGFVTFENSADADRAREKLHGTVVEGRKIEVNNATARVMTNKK
UACAUAAAAGAAUUUUUUUGUCUUUAAAUAGAUACAAAUGUCUAUCAACUUUAAUCAAGUUGUAACUUAUAUUGAAGACAAUUUGAUACAUAAUAAAAAAUUAUGACAAU: 0.497
GGCUGUGAUAAGUAGGUUUUGAUUGAGUGAAAGCAUGAGCUUGUUCAGAGUGAGGGGCAUAGUGAAAAAGGAACAGCCAUGCCUCAAAAUCAAAUCAUUUGCAUUCCCAC: 18.1
AGCAACUUCCUGGGAAGCUAAUUUAUUUGUCUAAAGGGUGGUGUGGGCAUCACCACCCUUGUUUGAUCUGCCUUGGAUUUCCUCUUGGAGCUUAUGUGCAGAUAGAGGUU: 1.1
CUCAGACAAGCUAAUCAUGGUGCGACUCUCUCCCUUCCUCAUCCACCUCUUUGGGGACAAGAGGAUUACAUCUCAGGCCAGCAAGAUCAGCUGCUUGAAGCUCUGUGUAA: 0.433
UGGGGAGUAGUGUGGCCAGGGAACUGGAAUCCCUGGUGGAUUUCUGAUUCCUGUGGUGAGAAGGAAAGCUACAGGACCUGGAGAAGGGGAUGCAGAGGCAGGCCUGCUGA: 0.672
AACAAGUAGGAGCAGCAACUAGCUAAAGAGUAGAAAGAAGCUUCCCUUAUUGUGGGUGAUGAGGCGGUGCCUAAAAACCACAUAUAUAUAAUCCCCUGGGUAUUACAUAU: 0.322
GGAAGCAUCUGUCUCACAUAGGCUGUAAGCUCUCUGAGAGCAGGCACCUGUCAUCCCAGUCCAUCCCACCGUUCCCUUACUGUACUCUGCAACUCACCAUCUGGAAUUAA: 0.85
AAGACUGUUUUCCUGUGUAAGUGUUGCCCUCUAGAGGUACCUAGCAGUCACCCCACAAGCCUACCAUCACGUCCCCUUCAGAGCUCACCUUGUAUCCUUAAUCCUCAGUA: 0.524

Block 5
Target: Histone acetyltransferase KAT6A, winged helix 1, GST fusion (KAT6A, Homo sapiens, UniProt Q92794, residues 1-85)
Technique: protein binding microarray
Molecule type: double-stranded DNA, one strand shown
Sample: in vitro
Concentration: not given
Notes: 8-mer, flanks averaged, mean of 2 arrays, mostly near background
Baseline: not given
Direction: higher = stronger binding
Endpoint: E-score
Construct (chain): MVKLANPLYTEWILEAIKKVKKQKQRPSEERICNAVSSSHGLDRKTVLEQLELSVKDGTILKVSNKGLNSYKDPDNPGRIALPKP
CATTAAGC: -0.0855
AGCACTAC: -0.071
GTCATATA: -0.141
ATCTTTGC: -0.016
ATGTCTAG: 0.0116
GCGAGAAC: 0.117
GTACAGGA: -0.0779
ACAGTAGT: -0.0863
GTTCTGTA: -0.158
CCCATACA: -0.167
CGGAGCTA: -0.118
TCAAAACA: -0.0204
GTCAACCA: -0.189
GCCAGTCA: -0.155
GAGGGTTA: -0.0658
ACGAACAC: -0.0628
CACCCAAA: -0.255
AGCCAAGA: -0.244

Block 6
Target: CCND1, cyclin fold, Cln2 fusion (human)
Technique: yeast growth competition, sequencing
Sample: yeast
Notes: weak parent motif
Baseline: not given
Direction: higher = stronger binding
Endpoint: normalised enrichment score
Starting sequence: ORC1 docking peptide (human); PRARKRLELGNLG
PRARKRPELGNLG [L7P]: -1.11
PRARKRLMLGNLG [E8M]: -0.238
PRAIKRLELGNLG [R4I]: -0.513
PRRRKRLELGNLG [A3R]: -0.373
PRATKRLELGNLG [R4T]: 0.632
PRARKGLELGNLG [R6G]: 0.498
PRARKRLELGNEG [L12E]: -0.0614
PRARKRLILGNLG [E8I]: 0.145
PRARKRLELGELG [N11E]: -0.288
PRARKRLELGNRG [L12R]: -0.471
PRARKRLELGNSG [L12S]: 0.0281
PRARKRMELGNLG [L7M]: -0.319
PRARKRLALGNLG [E8A]: -0.000894
PRARKVLELGNLG [R6V]: 0.0699
PRARKRDELGNLG [L7D]: 0.157
PRARKRLELGNKG [L12K]: -0.221
PRARKRLELHNLG [G10H]: -0.439
PRARKLLELGNLG [R6L]: 0.523

Excerpt of the above (block 2):
AGCACTGCCTCCTGTCACCTGTTTCGGCATGGCACA: 124 a.u.
CTTTCCCGATCTTGTCACCCAACTTTAGCACATTTG: 66.3 a.u.
GTCTTGTCTCATTGGAAAGTGGGTGTCCCCACTTCA: 85.8 a.u.
ATTGAGAAGTATAACGACACCCAGTGGACCTCGGGT: 57 a.u.
ATTGTGGAATTGGCAGGCGTGACAAACAAATCCGAT: 285 a.u.
CGTCCTAGTGATTGTCCAGTGGGTGCCATGAGGAAG: 79.9 a.u.
TGAAAAAACCCTTTTCGCGTGCCAGTGATGCTTCCA: 69.5 a.u.
AGTAGCTAAGCGAGTCACGGGACTAAAAGGTAAAAA: 3070 a.u.
CTTTCCCGATCTTGTAGGGTGGGTGTAGCACATTTG: 78.6 a.u.
CTGTAGAAGCTAGTACTTGTGATGAACCATTGGCAG: 84.6 a.u.
